{"data": "Measured values gathered from unrelated publications", "target": "Serine/threonine-protein kinase BRSK1 (BRSK1, Homo sapiens, UniProt Q8TDC3)", "One construct used (Q8TDC3 1-778)": "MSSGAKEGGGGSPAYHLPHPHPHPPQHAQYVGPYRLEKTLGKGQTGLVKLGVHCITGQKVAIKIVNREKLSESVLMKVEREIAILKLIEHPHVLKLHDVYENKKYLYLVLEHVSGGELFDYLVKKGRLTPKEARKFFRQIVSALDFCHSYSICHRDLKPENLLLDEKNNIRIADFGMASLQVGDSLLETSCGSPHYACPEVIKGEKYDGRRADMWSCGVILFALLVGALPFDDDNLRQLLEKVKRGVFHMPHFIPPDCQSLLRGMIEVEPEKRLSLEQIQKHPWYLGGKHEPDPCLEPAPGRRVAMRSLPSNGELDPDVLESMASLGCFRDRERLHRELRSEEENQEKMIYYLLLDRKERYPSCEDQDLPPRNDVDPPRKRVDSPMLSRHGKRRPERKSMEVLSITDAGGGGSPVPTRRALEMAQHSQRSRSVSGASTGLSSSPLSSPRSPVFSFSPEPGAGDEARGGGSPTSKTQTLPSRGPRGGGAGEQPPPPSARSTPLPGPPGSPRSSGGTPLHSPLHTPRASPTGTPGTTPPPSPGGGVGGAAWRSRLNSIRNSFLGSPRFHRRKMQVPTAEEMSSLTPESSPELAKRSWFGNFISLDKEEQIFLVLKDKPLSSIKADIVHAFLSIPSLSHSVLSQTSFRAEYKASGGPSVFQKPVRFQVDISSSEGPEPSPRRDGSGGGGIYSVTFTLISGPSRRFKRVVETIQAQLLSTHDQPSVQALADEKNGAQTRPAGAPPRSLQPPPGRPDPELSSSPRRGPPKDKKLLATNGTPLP", "note": "Each line is one published result; not all experiments were run side by side. Several values in a cell are separate wells, animals, samples, runs or records."}
{"Structure (SMILES)": "O=C=[N][Ru-4]123([n]4c5ccc(O)cc5c5c6c(c7cc(F)c[n+]1c7c54)C(=O)NC6=O)[S+]1CC[S+]2CC[S+]3CC1 (stereo not drawn)", "assay": "enzyme activity", "setting": "100 nM, human enzyme, together with: 10 µM ATP", "scale": "reference: untreated", "endpoint": "remaining activity", "result": "92%"}
{"Structure (SMILES)": "CC(C)=CC1OC(C)(C)C2C=C3C(=O)C(Cl)=CC(O)C3C3C(O)C4OC4C(=O)C132 (stereo not drawn)", "assay": "cell-free assay, competition with immobilised ligand", "setting": "10 µM", "endpoint": "remaining binding", "result": "97%"}
{"Structure (SMILES)": "O=C(Cc1ccc(OCc2ccccc2)cc1)NC1(C(=O)O)CCN(C(=O)c2ccc(-c3cccc(Cl)c3)cc2)CC1", "assay": "enzyme activity, inhibitor", "setting": "10 µM", "endpoint": "activity vs control", "result": "133%"}
{"Structure (SMILES)": "CN1CCN(Cc2ccc(-c3ccc(CO[C@H]4CCC[C@@H]4NC(=O)c4cc(-c5cnn(C)c5)cnc4N)cc3)cc2)CC1", "assay": "enzyme activity, inhibitor", "setting": "0.1 µM", "endpoint": "inhibition", "result": "-8%"}
{"Structure (SMILES)": "COc1cc(Nc2nccc(-c3cnn4nc(OC)ccc34)n2)cc(C(F)(F)F)c1", "assay": "binding, competition with immobilised ligand", "setting": "1 µM", "endpoint": "remaining binding", "result": "100%"}
{"Structure (SMILES)": "C=CC(=O)N1CCc2ccc(-n3c(=O)ccc4cnc5ccc(-c6cnn(C)c6)cc5c43)cc21", "assay": "KINOMEscan", "setting": "1 µM", "scale": "reference: DMSO control", "endpoint": "remaining binding", "result": "84%"}
{"Structure (SMILES)": "COCC12C(=O)NC3C4(C(OC)CC1O)C1CC5(O)C(OC)C(O)C(OC(C)=O)(C1C5OC(=O)c1ccccc1)C3(O)C(OC)C24 (stereo not drawn)", "assay": "kinase activity, inhibitor, ProQinase kinase profiling", "setting": "25 µM", "scale": "reference: control", "endpoint": "remaining activity", "result": "102% and 108%"}
{"Structure (SMILES)": "NC(=O)C[C@H]1CCc2sc3ncnc(O[C@H]4CC[C@H](N5CCOCC5)CC4)c3c21", "assay": "enzyme activity, inhibitor", "setting": "10 µM", "endpoint": "inhibition", "result": "7%"}
{"Structure (SMILES)": "COc1c(OCCCN2CCOCC2)ccc2c1N=C(NC(=O)c1cnc(N)nc1)N1CCN=C21", "assay": "kinase activity, inhibitor", "setting": "1 µM", "scale": "reference: untreated control", "endpoint": "remaining activity", "result": "97%"}
{"Structure (SMILES)": "Cc1cccc(O[C@H]2CCC[C@@H](C(C)CNCc3ccncc3)C2)c1 (relative stereo)", "assay": "enzyme activity, inhibitor", "setting": "1 µM", "endpoint": "inhibition", "result": "-2%"}
{"Structure (SMILES)": "C=CC(=O)Nc1cccc(-c2cnc3[nH]cc(C(=O)NC(C)(C)C)c3n2)c1", "assay": "kinase activity", "setting": "0.1 µM", "endpoint": "inhibition", "result": "13% and 12%"}
{"Structure (SMILES)": "Cc1ccc(-c2c(/C=C(\\C#N)C(=O)NC(C)C)n(CCCO)c3ncnc(N)c23)cc1", "assay": "cell-free assay, competition with immobilised ligand", "setting": "1 µM", "endpoint": "remaining binding", "result": "67%"}
{"Structure (SMILES)": "Cc1cnc2nc1Nc1cccc(c1)COC/C=C/COCc1cc(ccc1OCCN1CCOCC1)N2", "assay": "binding", "setting": "0.1 µM", "endpoint": "remaining binding", "result": "100%"}
{"Structure (SMILES)": "COc1ccc(NC(=O)Nc2ccc3c(c2)C(=O)N(C(C)CO)CC(C)C(CN(C)Cc2ccc4c(c2)OCO4)O3)cc1 (stereo not drawn)", "assay": "kinase activity, KinaseProfiler", "setting": "0.03 µM, species human", "scale": "reference: control", "endpoint": "remaining activity", "result": "98%"}
{"Structure (SMILES)": "CNC(=O)C[C@H](Cc1ccc(C#N)cc1)NC(=O)c1cc(-c2ccc(CN[C@H](C)c3ccc(C)cc3)o2)ccc1Cl", "assay": "enzyme activity, inhibitor", "setting": "1 µM", "endpoint": "activity vs control", "result": "100%"}
{"note": "Some of these lines once more:"}
{"Structure (SMILES)": "C=CC(=O)Nc1cccc(-c2cnc3[nH]cc(C(=O)NC(C)(C)C)c3n2)c1", "assay": "kinase activity", "setting": "0.1 µM", "endpoint": "inhibition", "result": "13% and 12%"}
